Published values gathered from unrelated publications.
Each numbered part is a random draw from the data of one study; scales do not carry over between parts. Substitutions count along the parent as printed.

Set 1
Target: CCNB1, cyclin fold, Cln2 fusion (human)
Technique: yeast growth competition, sequencing
Medium: yeast
Notes: weak parent motif
Relative to: not given
Direction: higher = stronger binding
Starting sequence: DTL docking peptide (human); PSSMRKICTYFHR
| Substitution | normalised enrichment score |
| --- | --- |
| PSSMAKICTYFHR [R5A] | 0.17 |
| PSSMRKIATYFHR [C8A] | -0.119 |
| PSSMRKICTYAHR [F11A] | 0.575 |
| PSSMRKICAYFHR [T9A] | -0.0239 |
| PSSMRKICTYFAR [H12A] | 0.336 |
| PSSMRKICTYFHA [R13A] | 0.179 |

Set 2
Target: Interferon regulatory factor 7, full length, phosphomimetic (IRF7, Homo sapiens, UniProt Q92985, residues 1-503, S471D/S472D/S475D/S476D/S477D/S483D/S484D/S487D)
Technique: protein-binding microarray
Molecule type: double-stranded DNA, one strand shown
Medium: in vitro
Concentration: 2200 nM top
Notes: 60-bp whole probe
Added: salmon DNA 0.4 mg/ml
Relative to: random background probes
Direction: higher = stronger binding
Constant ends, left off below: GCCTAGCAC … GTCTTGATTCGCTTGACGCTGCTG
Target sequence (chain): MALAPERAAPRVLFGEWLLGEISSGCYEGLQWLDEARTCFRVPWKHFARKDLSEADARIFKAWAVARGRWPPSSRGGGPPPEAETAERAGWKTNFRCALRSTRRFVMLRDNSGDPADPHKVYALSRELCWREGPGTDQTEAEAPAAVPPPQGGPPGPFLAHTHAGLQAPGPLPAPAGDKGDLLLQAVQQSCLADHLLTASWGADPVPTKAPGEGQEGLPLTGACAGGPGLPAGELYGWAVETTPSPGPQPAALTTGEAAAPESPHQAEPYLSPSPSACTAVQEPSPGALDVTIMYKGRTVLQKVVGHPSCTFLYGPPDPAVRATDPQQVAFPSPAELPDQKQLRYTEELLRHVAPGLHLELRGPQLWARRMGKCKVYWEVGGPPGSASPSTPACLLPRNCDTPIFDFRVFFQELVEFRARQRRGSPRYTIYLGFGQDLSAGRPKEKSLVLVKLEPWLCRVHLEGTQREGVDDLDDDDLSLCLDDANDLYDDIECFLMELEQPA
| Strand | fitted relative affinity [z-score] |
| --- | --- |
| CAAACACTGGTTTTTACTTTGTGCTAG | 1.05 |
| GAAATTTTCCCCTACTGTATGTGCTAG | 2.05 |
| TTAGGTTTCGGTATTGGTTAGTGCTAG | 6.54 |
| CTAGGACTGGGGTTTCGGTTAGTGCTA | 1.94 |
| TCCTGTATGGATGTGTTTTAGTGCTAG | 0.788 |
| TCATACCTGTATATCTTACTGTGCTAG | 1.28 |
| TCATCTCTGCCACTCAGACTGTGCTAG | 1.36 |
| GACGTTTTCGACACTGGGGACGTGCTA | 2.69 |
| TTAGAACTGACTCTCGATTAGTGCTAG | -0.091 |
| TTAGAACTGGGGTGTCGATTAGTGCTA | -0.222 |
| GACGGTATCGGGTCTGGGGACGTGCTA | -0.287 |
| CTTGCTCTGTGCATAGGTCTGTGCTAG | 0.363 |
| TCATTTTTCCGAGTGAGACTGTGCTAG | 1.47 |
| GACGGTATCCTTTTTCTGACGTGCTAG | 1.1 |
| ATTACTCCCCAACTCGCCTTGTGCTAG | 1.69 |
| CTCTACATGGGTATAGAGTAGTGCTAG | -0.0277 |

Set 3
Target: RNA binding protein fox-1 homolog 2, RRM domain, GST-SBP tag (RBFOX2, Homo sapiens, UniProt O43251-10, residues 100-194)
Technique: RNA Bind-n-Seq
Molecule type: RNA
Medium: in vitro
Concentration: 365 nM
Notes: natural RNA segment, single round, ends assumed
Relative to: no-protein control
Direction: higher = stronger binding
Constant ends, left off below: GGGAGUUCUACAGUCCGACGAUC … UGGAAUUCUCGGGUGCCAA
Target sequence (chain): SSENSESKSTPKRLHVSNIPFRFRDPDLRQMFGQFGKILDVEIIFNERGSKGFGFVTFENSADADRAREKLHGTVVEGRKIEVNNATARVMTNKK
| Strand | RBNS enrichment (R) |
| --- | --- |
| GAGGGAGGUCUUAGGAUGUUGUAUGCUGUGCUGAGUGGGUGCCAGUUUGGCGUGAUGUCACGUGUGGCCAGACUGGCGACCGUACACUAGGUUUUUGAUCUUGCACUUUG | 0.788 |
| GGUGGCCCCUGUGGGGUGUCCUGUCACAGCCAUGUCUAUGGAAUCGCAGAGGCGGUGGGAAGGCUGUCAGAGCCUGUGUUCUGAUUUUUCAGAAAACAGGUCUCUCCUUU | 0.195 |
| AGCAGAUGAGACCAGCUCUUGCUUGGUUGGAAGCCACACUGCAGUUUGCAGUUUAGCCUUUGGUGUCUCAGUGGCUUCUUGCUUAUUCCAUGCUUUUUCUAUCCCAUCCU | 0.205 |
| GAUGCUUCACCUGGCAUCUAGCCACUGCCUCCCACUUCUAGCAGAACUGGGUCAGCAGCCCUGUUCUUGCUUCCUCUCUCUUAAGCUAGGCCAGGCUGGCUCCUGGCUGU | 0.382 |
| UCUUACUGCUAAUUAAAACCUAAGCAAGAAGUCUCAUGUAAUUCUGAUAGCAGAAUUGCAUUGUGUGAACUGUGUAACUUUAGUAAUGUAAAUCAAGGAACAUCAGUUAA | 0.502 |
| GAUGAUUUUCUCUGAUGAGGUCCUAUCUGCAAGGUCAAUGAGCAGACUUACAUGCCAUCUUCUGAGUAAAGAGUUUGAGGUUUUAAUUUAAAGGCAAUGUACAGCUAUAC | 0.472 |
| AGCAGCUUUUGUGUCAUUCUCCCCACUUUAUUAGUUAAUUUAAAUUGGAAAAAACCCUCAAACUAAUAUUCUUGUCUGUUCCAGUCUUAUAAAUAAAACUUAUAAUGCAU | 1.44 |
| CCUACCAAAUAAAUAAAUAGUUUAUAAAAUGUAUUACUUAAGGUAUUAGCUGAGUUUAGAGUACUUUCUGCUUAAUUAAUUUUUAUACUUAACUCUUCAGUAGAGGUUUA | 0.744 |
| AAAGAGAAAAAUGAAAAACUCAUAGUUUGGAGCCAGGAGGCAGGGUGUCCUACAGGGCUGCACAGCCCUGAGGGGUCAGUGCUGGGAUCUGGUUGGUUGGUUUGUCUUUU | 0.425 |
| UCCUUUCUUCUCCCUAUCAGAGCUGACCCUACAAACACCUGUCCCCUGAGUUGUGUUGAAGUCCCCUGGACAAUGAGCAGGGGUGGCAGAGGACAGCAGCAGCCACUGCC | 0.997 |
| CCCCUCACGUCCCAUGUGCUCAGACCCAGAAAAAGCAGAACAGAAUUAGAAGUGCCUCUGAGCCUUGUGAAGUGUGUGCGCAAGCCCCCAUGGAGAAAUGGAGACAUCUU | 0.848 |
| CUGUCUGUCAGUCAGGACCUUCUGGUAUAGGUGAUGUAAAAUAACCGUACAAUAUUAAUGCAUGCGAUUCCAUAAUGCUUAGUGAACUGUAUGAAUAUUACUCAAAGUUA | 4.24 |

Set 4
Target: Sal-like protein 4, full length isoform B (SALL4, Homo sapiens, UniProt Q9UJQ4-2, residues 1-616)
Technique: universal PBM
Molecule type: double-stranded DNA, one strand shown
Medium: in vitro
Concentration: not given
Notes: 8-mer, flanks averaged, mean of replicates
Direction: higher = stronger binding
Target sequence (chain): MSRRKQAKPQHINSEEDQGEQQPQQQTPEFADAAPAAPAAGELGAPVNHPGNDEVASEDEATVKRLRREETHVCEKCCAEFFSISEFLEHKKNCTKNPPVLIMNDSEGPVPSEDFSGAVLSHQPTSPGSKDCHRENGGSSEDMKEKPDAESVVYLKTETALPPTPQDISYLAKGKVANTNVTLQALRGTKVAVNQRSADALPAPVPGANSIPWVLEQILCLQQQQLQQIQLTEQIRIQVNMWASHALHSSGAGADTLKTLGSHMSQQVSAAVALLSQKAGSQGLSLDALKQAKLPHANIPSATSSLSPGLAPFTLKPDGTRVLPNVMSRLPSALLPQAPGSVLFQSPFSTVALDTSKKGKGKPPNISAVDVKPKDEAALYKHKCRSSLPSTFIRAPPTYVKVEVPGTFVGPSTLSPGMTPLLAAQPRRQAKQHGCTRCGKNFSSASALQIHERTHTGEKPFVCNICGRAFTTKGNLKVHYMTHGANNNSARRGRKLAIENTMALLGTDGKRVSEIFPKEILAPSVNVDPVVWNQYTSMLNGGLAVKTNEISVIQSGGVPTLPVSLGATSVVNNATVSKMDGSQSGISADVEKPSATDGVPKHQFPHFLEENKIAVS
| Strand | E-score |
| --- | --- |
| CACTGTAG | 0.175 |
| CCTACACC | 0.0668 |
| ATGGTCAC | -0.0108 |
| CCTAATCG | -0.0317 |
| AGAGGCGC | -0.273 |
| CCAGCACG | -0.207 |
| ATCCTCTA | -0.00404 |
| AGATGGCG | -0.186 |
| AACGCAAC | 0.0353 |
| AAACGGAT | 0.0623 |
| CCCCGCCG | -0.349 |
| AGGCCGGC | -0.213 |
| AGGTTCCA | -0.0952 |
| GCAGACCA | -0.252 |
| GGGCAACC | -0.311 |
| CGAGATGC | -0.0172 |
| ACTGGGGC | -0.187 |

Set 5
Target: PABPC1L2, full length, GST fusion (mouse, UniProt A0ABA7IW68)
Technique: RNAcompete
Molecule type: RNA
Medium: in vitro
Concentration: 20 nM
Notes: 7-mer, probes averaged, single round
Relative to: mean of 7-mers
Direction: higher = stronger binding
Target sequence (chain): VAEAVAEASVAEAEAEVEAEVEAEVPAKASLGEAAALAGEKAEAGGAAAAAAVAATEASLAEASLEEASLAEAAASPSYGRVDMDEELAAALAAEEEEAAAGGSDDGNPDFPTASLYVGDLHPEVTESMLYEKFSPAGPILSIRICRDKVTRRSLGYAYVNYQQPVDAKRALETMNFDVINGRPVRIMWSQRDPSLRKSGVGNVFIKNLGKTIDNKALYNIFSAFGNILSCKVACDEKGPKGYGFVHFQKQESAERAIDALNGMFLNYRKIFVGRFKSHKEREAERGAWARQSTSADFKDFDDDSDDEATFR
| Strand | 7-mer Z-score |
| --- | --- |
| AUUUUGU | -0.258 |
| UGAUGGU | -0.117 |
| GUCGUAU | -0.354 |
| UAAUUAU | -0.166 |
| UAUCUGG | -0.137 |
| GUUUGUG | -0.465 |
| CUACACU | -0.206 |
| AUACACC | -0.0446 |
| CCGCCUA | -0.358 |
| CCCACUG | -0.34 |
| ACUGUUU | -0.371 |
| GGCAACU | 0.111 |
| GCCUAAU | -0.327 |
| GGGGUUU | -0.224 |
| UAGACUU | -0.137 |
| CUACCAC | -0.103 |
| AUGGGCU | 0.0714 |
| CAAACAC | 1.29 |
| UAGUUCG | -0.347 |
| CAUCGUA | -0.193 |
| GCAGCAU | -0.0554 |
| AUACUAA | 0.187 |
| CGACCAC | -0.103 |
| CUGCAAG | -0.157 |
| AACGCUG | -0.0174 |

For quick reference, copied from above (set 3):
| Strand | RBNS enrichment (R) |
| --- | --- |
| AGCAGCUUUUGUGUCAUUCUCCCCACUUUAUUAGUUAAUUUAAAUUGGAAAAAACCCUCAAACUAAUAUUCUUGUCUGUUCCAGUCUUAUAAAUAAAACUUAUAAUGCAU | 1.44 |
| AGCAGAUGAGACCAGCUCUUGCUUGGUUGGAAGCCACACUGCAGUUUGCAGUUUAGCCUUUGGUGUCUCAGUGGCUUCUUGCUUAUUCCAUGCUUUUUCUAUCCCAUCCU | 0.205 |
| GGUGGCCCCUGUGGGGUGUCCUGUCACAGCCAUGUCUAUGGAAUCGCAGAGGCGGUGGGAAGGCUGUCAGAGCCUGUGUUCUGAUUUUUCAGAAAACAGGUCUCUCCUUU | 0.195 |
| CCUACCAAAUAAAUAAAUAGUUUAUAAAAUGUAUUACUUAAGGUAUUAGCUGAGUUUAGAGUACUUUCUGCUUAAUUAAUUUUUAUACUUAACUCUUCAGUAGAGGUUUA | 0.744 |
| AAAGAGAAAAAUGAAAAACUCAUAGUUUGGAGCCAGGAGGCAGGGUGUCCUACAGGGCUGCACAGCCCUGAGGGGUCAGUGCUGGGAUCUGGUUGGUUGGUUUGUCUUUU | 0.425 |
| UCCUUUCUUCUCCCUAUCAGAGCUGACCCUACAAACACCUGUCCCCUGAGUUGUGUUGAAGUCCCCUGGACAAUGAGCAGGGGUGGCAGAGGACAGCAGCAGCCACUGCC | 0.997 |
